Experimental data from different studies.
A part holds a random share of what one study measured.
Sequence of UniProt P10721 (whole entry, unmodified, looked up): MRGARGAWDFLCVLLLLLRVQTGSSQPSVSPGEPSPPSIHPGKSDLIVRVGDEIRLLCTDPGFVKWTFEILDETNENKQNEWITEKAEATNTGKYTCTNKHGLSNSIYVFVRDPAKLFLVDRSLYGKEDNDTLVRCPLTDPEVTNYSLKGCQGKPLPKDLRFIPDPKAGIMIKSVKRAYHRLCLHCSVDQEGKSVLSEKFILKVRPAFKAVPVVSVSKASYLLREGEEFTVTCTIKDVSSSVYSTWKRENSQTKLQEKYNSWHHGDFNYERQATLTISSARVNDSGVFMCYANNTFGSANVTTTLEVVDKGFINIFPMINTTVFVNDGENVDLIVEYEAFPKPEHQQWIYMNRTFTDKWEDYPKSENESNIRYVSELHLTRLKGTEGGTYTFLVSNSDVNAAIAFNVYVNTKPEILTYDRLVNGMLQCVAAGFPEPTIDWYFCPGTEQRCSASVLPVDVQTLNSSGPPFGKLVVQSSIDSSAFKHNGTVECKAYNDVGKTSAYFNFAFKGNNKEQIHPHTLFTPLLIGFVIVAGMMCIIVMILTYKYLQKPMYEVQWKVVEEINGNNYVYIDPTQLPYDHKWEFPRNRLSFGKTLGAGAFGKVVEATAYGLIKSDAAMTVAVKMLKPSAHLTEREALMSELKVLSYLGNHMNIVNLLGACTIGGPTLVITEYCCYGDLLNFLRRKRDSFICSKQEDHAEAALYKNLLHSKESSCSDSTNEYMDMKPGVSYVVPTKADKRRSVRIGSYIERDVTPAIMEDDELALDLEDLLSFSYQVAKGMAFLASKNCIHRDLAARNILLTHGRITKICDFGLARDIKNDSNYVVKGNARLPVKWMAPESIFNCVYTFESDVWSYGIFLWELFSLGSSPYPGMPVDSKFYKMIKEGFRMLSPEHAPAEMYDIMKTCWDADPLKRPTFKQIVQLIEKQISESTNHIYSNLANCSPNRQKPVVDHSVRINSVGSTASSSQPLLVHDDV
Sequence of UniProt Q9UIK4 (whole entry, looked up): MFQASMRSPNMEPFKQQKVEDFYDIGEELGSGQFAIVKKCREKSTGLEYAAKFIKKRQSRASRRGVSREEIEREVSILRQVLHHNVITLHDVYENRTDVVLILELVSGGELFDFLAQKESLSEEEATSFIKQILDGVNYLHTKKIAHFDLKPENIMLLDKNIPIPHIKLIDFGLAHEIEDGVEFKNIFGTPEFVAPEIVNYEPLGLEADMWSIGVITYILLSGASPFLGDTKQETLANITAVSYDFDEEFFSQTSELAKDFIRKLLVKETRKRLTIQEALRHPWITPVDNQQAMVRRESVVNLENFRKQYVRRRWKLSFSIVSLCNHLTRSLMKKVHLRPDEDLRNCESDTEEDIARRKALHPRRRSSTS
Sequence of UniProt O43353 (whole entry, looked up): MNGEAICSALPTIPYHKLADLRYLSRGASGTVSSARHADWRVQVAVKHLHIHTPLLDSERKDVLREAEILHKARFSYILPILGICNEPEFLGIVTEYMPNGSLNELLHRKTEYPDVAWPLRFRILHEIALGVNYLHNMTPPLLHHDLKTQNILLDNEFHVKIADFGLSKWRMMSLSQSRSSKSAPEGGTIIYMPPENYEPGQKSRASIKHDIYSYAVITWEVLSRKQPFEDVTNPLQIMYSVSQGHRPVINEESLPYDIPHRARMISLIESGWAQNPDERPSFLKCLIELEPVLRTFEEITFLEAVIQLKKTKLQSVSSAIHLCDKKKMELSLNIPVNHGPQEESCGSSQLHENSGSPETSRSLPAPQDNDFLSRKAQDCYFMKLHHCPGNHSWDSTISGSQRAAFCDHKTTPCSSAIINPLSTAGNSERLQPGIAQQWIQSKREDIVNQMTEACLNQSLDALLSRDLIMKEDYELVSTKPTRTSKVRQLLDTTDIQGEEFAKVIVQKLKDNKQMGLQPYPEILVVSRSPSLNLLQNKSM
Sequence of UniProt O75914 (whole entry, looked up): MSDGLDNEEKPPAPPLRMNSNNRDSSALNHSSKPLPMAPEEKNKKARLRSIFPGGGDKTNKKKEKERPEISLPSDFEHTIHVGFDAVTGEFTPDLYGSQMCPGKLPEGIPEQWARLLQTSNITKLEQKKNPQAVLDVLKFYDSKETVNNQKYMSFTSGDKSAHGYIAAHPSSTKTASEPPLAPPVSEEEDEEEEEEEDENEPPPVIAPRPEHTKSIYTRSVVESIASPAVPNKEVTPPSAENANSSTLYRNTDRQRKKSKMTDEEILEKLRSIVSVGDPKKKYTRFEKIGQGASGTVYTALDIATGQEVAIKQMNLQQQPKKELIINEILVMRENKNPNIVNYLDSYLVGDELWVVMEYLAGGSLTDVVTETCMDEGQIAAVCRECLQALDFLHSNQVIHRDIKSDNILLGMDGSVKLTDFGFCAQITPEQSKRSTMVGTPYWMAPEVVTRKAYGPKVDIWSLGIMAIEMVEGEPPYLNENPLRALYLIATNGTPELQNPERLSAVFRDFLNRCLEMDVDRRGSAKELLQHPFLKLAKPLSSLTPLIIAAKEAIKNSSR
Sequence of UniProt Q02779 (whole entry, looked up): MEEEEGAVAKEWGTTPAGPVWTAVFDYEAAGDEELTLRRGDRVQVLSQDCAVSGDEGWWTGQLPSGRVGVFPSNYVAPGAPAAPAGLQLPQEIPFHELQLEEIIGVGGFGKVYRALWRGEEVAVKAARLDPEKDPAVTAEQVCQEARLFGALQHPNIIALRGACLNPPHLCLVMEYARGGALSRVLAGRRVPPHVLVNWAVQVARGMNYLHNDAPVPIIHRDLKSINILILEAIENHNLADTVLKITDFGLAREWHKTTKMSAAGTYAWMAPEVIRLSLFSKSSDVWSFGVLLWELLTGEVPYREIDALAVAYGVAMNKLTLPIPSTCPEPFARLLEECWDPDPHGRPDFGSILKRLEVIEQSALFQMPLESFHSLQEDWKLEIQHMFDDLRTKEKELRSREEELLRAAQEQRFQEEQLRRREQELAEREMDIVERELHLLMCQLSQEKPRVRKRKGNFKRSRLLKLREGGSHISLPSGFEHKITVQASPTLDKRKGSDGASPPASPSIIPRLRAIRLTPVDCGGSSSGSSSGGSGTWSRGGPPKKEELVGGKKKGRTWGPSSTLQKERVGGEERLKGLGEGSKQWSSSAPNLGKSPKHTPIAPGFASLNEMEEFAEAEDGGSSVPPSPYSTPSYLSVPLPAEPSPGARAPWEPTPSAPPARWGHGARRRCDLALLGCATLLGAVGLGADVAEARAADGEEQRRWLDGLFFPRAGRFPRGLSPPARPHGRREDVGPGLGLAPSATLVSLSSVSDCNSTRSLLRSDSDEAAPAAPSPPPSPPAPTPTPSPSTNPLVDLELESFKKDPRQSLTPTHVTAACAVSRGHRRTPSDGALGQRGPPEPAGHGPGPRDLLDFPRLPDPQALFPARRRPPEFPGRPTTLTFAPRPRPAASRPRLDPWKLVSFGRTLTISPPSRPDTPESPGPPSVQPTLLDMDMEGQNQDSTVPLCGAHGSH
Sequence of UniProt P78356 (whole entry, looked up): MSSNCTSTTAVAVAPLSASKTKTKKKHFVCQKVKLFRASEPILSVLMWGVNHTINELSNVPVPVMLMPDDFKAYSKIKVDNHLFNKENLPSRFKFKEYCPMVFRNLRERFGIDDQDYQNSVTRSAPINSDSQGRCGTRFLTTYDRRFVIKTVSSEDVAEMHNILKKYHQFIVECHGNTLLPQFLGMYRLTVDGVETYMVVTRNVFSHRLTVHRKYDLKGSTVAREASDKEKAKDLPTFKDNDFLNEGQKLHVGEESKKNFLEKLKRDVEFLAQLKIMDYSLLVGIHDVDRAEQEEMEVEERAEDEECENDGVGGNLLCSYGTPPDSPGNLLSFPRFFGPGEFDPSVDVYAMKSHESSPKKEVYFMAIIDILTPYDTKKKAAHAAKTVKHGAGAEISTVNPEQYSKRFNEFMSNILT
Sequence of UniProt P0C1S8 (whole entry, looked up): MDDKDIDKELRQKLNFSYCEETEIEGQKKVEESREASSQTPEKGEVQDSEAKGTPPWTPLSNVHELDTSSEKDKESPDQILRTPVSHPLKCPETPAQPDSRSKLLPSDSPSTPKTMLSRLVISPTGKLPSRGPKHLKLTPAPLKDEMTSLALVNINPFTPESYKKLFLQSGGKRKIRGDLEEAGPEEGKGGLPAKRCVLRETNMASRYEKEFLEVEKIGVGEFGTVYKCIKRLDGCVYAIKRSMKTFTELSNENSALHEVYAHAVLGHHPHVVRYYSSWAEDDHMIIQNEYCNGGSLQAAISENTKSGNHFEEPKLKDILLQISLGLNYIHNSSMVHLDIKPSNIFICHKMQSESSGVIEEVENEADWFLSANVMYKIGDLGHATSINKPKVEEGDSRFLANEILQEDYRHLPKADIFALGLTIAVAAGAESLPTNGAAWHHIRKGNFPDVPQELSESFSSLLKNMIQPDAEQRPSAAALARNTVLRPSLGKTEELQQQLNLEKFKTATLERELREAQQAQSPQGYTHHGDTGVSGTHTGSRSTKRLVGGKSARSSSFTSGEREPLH

Study 1 — read-out: enzyme activity; mode: inhibitor; concentration: 0.5 µM; baseline: control
Target: Dual specificity protein kinase CLK2 (CLK2, Homo sapiens, UniProt P49760)
Sequence of UniProt P49760 (whole entry, looked up): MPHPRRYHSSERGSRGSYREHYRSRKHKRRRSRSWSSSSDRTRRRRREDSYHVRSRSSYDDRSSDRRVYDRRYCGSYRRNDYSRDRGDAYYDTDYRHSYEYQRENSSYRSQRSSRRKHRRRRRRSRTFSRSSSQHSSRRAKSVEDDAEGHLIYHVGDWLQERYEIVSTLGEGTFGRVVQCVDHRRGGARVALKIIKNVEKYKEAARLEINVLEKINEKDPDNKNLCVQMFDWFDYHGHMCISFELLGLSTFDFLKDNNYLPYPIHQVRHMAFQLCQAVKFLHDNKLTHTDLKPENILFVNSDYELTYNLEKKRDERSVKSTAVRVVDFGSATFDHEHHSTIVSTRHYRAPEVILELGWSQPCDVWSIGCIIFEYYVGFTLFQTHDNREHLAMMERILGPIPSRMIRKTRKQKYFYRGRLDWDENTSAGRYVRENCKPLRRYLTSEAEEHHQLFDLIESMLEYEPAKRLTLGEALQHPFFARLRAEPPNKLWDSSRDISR
SMILES | remaining activity
O=C1C(Cl)=C(N2C(=O)CCC2=O)C(=O)c2ccccc21 | 90.7%
COc1cc2c(cc1OC)-c1[nH]nc(Nc3cccc(F)c3)c1C2 | 84.3%
c1ccc(-c2cnc(Nc3ccc(OCCN4CCCC4)cc3)s2)cc1 | 102%
Nc1cccc(-c2cc3c(Oc4cccc(O)c4)ncnc3[nH]2)c1 | 98.8%
C[C@@H]1CCN(C(=O)CC#N)C[C@@H]1N(C)c1ncnc2[nH]ccc12 | 85.8%
O=C(Nc1cccc(Nc2nccc(Nc3cccc(C(F)(F)F)c3)n2)c1)C1CC1 | 87.6%
Cc1nc2cc3nc(-c4cccs4)cnc3cc2n1C | 95.3%
c1ccc(-c2[nH]ncc2-c2ccnc3ccccc23)nc1 | 99.4%
CN(C)C[C@H]1CCn2c(c(C3=C(c4cn(C)c5ccccc45)C(=O)NC3=O)c3ccccc32)C1 | 85.9%
CCOc1nc(NC(=O)Cc2cc(OC)ccc2OC)cc(N)c1C#N | 96.1%
CN([C@@H](Cc1ccc(OS(=O)(=O)c2cccc3cnccc23)cc1)C(=O)N1CCN(c2ccccc2)CC1)S(=O)(=O)c1cccc2cnccc12 | 93%
CCN(CC)CCNC(=O)c1c(C)[nH]c(/C=C2\C(=O)Nc3ccc(Cl)cc32)c1C | 15.8%
Ic1cccc(CSc2nnc(-c3ccncc3)o2)c1 | 104%
CCN(CC)C(=O)c1ccc(Nc2nc(OCC3CCCCC3)c3[nH]cnc3n2)cc1 | 40.6%
O=C1c2ccccc2-c2n[nH]c3cccc1c23 | 95.4%
O=C(NC(NC(=S)Nc1ccc(F)c([N+](=O)[O-])c1)C(Cl)(Cl)Cl)C(c1ccccc1)c1ccccc1 (stereo not drawn) | 93.5%
CCN(CC)CCNC(=O)c1c(C)[nH]c(/C=C2\C(=O)Nc3ccc(F)cc32)c1C | 13.6%
N#Cc1c(NC(=O)c2cccc3ccccc23)sc2c1CCCC2 | 101%
Cn1nc2c3c(cccc31)C(=O)c1ccccc1-2 | 94.5%
Cc1cc2ncc(-c3ccccc3)nc2cc1C | 102%
COc1cc2ncnc(Nc3ccc(O)c(Br)c3)c2cc1OC | 96.7%
COc1cc2ncnc(Nc3cccc(Cl)c3)c2cc1OC | 89.6%
O=c1cc(-c2cccc3c2Sc2ccccc2S3)oc(N2CCOCC2)c1 | 84.7%
N#C/C(=C\c1ccc(O)c(O)c1)C(=O)NCc1ccccc1 | 110%

Study 2 — read-out: cell-free assay; technique: competition with immobilised ligand; concentration: 1 µM
SMILES: O=C(O)[C@@H]1[C@@H](Cn2nnc3ccccc3c2=O)CC[C@H]1C(=O)c1ccc(OCCC2CCOCC2)cc1
target | remaining binding
RIPK2 (Homo sapiens, UniProt O43353) | 97%
KIT (Homo sapiens, UniProt P10721, L576P) | 100%
NEK11 (Homo sapiens, UniProt Q8NG66) | 100%
STK32C (Homo sapiens, UniProt Q86UX6) | 100%
STK17A (Homo sapiens, UniProt Q9UEE5) | 98%
FGR (Homo sapiens, UniProt P09769) | 100%
MAP3K10 (Homo sapiens, UniProt Q02779) | 100%
PIP4K2B (Homo sapiens, UniProt P78356) | 81%
Mast/stem cell growth factor receptor Kit, autoinhibited (KIT, Homo sapiens, UniProt P10721) | 89%
TNIK (Homo sapiens, UniProt Q9UKE5) | 93%
MAST1 (Homo sapiens, UniProt Q9Y2H9) | 100%
KDR (Homo sapiens, UniProt P35968) | 78%
Tyrosine-protein kinase ABL1, non-phosphorylated (ABL1, Homo sapiens, UniProt P00519, Q252H) | 96%
PAK3 (Homo sapiens, UniProt O75914) | 99%
KIT (Homo sapiens, UniProt P10721, T670I/V559D) | 98%
WEE2 (Homo sapiens, UniProt P0C1S8) | 100%
DAPK2 (Homo sapiens, UniProt Q9UIK4) | 100%

Study 3 — species: human; sample: microsomes or S9; concentration: 2 µM; time: 0.5 h
Structure (SMILES) | remaining compound [%]
Fc1ccc(-c2ccc3ccnc(N4CCOCC4)c3c2)cc1Cl | 14.6
CCOC(=O)Nc1ccc(Br)c2ccc(OCc3ccccc3)c(CCCO)c12 | 70.2
Cn1nc(Br)nc1N1CCC(O)CC1 | 83.4
O=C(Nc1cc2ccc(O)cc2s1)Nc1ccc(Br)cc1F | 69.5
Cc1nc2ncc(-c3cccc(N(C)C)c3)cc2[nH]1 | 87.4
COc1ccc(/N=C2\C(N3CCCCC3)C3(CCCCC3)C(=O)N2c2ccc(Cl)cc2)cc1 (stereo not drawn) | 57.5
CC1(C)CC(Nc2ccc3nncn3n2)CC(C)(C)N1 | 81.5
Cc1cc(C)nc(NC(N)=Nc2ccc(CC(=O)OC(C)C)cc2)n1 | > 100
Cc1cc(Cl)cc(C(=O)c2c(C(C)C)c(=O)[nH]c(=O)n2Cc2cc(N)nc(Cl)c2)c1 | 23.9
COc1ccc(Cl)cc1NC(=O)c1[nH]c(C)c(C(C)=O)c1C | 71.7
C1=Cn2nc(/C=C/c3cccs3)nc2-c2ccccc2O1 | 25.1
N=C(NS(=O)(=O)c1ccccc1)c1ccccc1 | 82.7
[O-][S+]1CCN(c2ncnc3sccc23)CC1 | > 100
COc1cc(OC)c2c(c1)C(=O)NN1C(=O)OC(C)(C)C21C (stereo not drawn) | 46.3
CCOc1cc(C#N)ccc1OCc1nc(-c2cccs2)no1 | 61.5
CCOC(=O)CCS(=O)(=O)c1n[nH]c(NC(C)=O)n1 | 89.5
CC(=O)N[C@@H]1CN(C(=O)c2nc3cc(C)ccn3c2F)C[C@H]1c1ccc(C)o1 | 82.6
CC1CC(=O)N(c2cccc(Cl)c2)N=C1c1ccc(O)cc1 (stereo not drawn) | 70.8

Study 4 — mode: inhibitor; concentration: 10 µM; baseline: control
Target: Diamine acetyltransferase 1 (Homo sapiens, UniProt P21673)
Construct (P21673 1-171): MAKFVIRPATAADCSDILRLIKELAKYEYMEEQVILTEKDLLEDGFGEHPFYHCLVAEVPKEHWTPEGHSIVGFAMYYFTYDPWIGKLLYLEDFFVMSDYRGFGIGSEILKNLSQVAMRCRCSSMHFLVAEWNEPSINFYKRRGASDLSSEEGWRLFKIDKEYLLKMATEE
SMILES | remaining activity [%]
COc1cc2c(c(OC)c1OC)C(=O)c1c(cc(C)c(O)c1OC)C2=O | 103
C=CCC(=NOS(=O)(=O)O)S[C@@H]1O[C@H](CO)[C@@H](O)[C@H](O)[C@H]1O (stereo in doubt) | 99.5
N[C@@H](CO)C(=O)O | 91.8
CC(=O)CC/C=C(\C)CCC=C(C)C | 92.7
COc1ccc(-c2coc3cc(O)c(OC)c(O)c3c2=O)cc1O | 82.1
C=C1CC[C@@H]2[C@H]([C@@H]3[C@H](C)CC[C@@H]13)C2(C)C | 91.4
O=C1C[C@@H](c2ccc(O)cc2)Oc2cc(O)cc(O)c21 | 89.6
Oc1cccc(O)c1O | 88.5
C=CCc1ccc(O)c(-c2ccc(O)c(CC=C)c2)c1 | 95.8
COc1cc(O)cc(CCc2cccc(O)c2)c1 | 95.8
COc1cc([C@H]2Oc3c(OC)cc(CCCO)cc3[C@@H]2CO)ccc1O | 92.1
COc1cc(-c2coc3c([C@@H]4O[C@H](CO)[C@@H](O)[C@H](O)[C@H]4O)c(O)ccc3c2=O)ccc1O | 78.7
C[n+]1cccc(C(=O)[O-])c1 | 76.1

Repeated from above (study 4):
SMILES | remaining activity [%]
C=CCC(=NOS(=O)(=O)O)S[C@@H]1O[C@H](CO)[C@@H](O)[C@H](O)[C@H]1O (stereo in doubt) | 99.5
N[C@@H](CO)C(=O)O | 91.8
C=CCc1ccc(O)c(-c2ccc(O)c(CC=C)c2)c1 | 95.8
COc1ccc(-c2coc3cc(O)c(OC)c(O)c3c2=O)cc1O | 82.1
COc1cc(-c2coc3c([C@@H]4O[C@H](CO)[C@@H](O)[C@H](O)[C@H]4O)c(O)ccc3c2=O)ccc1O | 78.7
COc1cc(O)cc(CCc2cccc(O)c2)c1 | 95.8
COc1cc2c(c(OC)c1OC)C(=O)c1c(cc(C)c(O)c1OC)C2=O | 103
